Published values collected from several papers.
≈ marks a conversion by molar mass, not a printed value.
pH: 7.4

Compound = O=C(N1CCCCC1)C12CC(c3ccccc3)(C1)C2(Cl)Cl; sample = PBS; time = 2 h; temperature = 25 °C; kinetic solubility = 116 µM (≈ 37.6 µg/mL)
Compound = O=C(Nc1cc(C(F)F)ns1)Nc1cc(F)ncc1CO; sample = PBS; time = 24 h; kinetic solubility = 97.3 µM (≈ 31 µg/mL)
Compound = O=C(N1CCCCC1)C12CC(c3ccccc3)(C1)C2(F)F; sample = PBS; time = 2 h; temperature = 25 °C; kinetic solubility = 91 µM (≈ 26.5 µg/mL)
Compound = Cc1nn(C)c2nnc(-c3ccccc3)c(Cl)c12; sample = PBS; time = 2 h; kinetic solubility = 105 µM (≈ 27.2 µg/mL)
Compound = Nc1nc(SCc2ccc(Cl)cc2)nn1S(=O)(=O)c1ccc2c(c1)CCO2; sample = PBS; time = 24 h; kinetic solubility = 6.5 µM (≈ 2.75 µg/mL)
Compound = CC[C@H](C)[C@@H]1NC(=O)[C@H](Cc2ccc(O)cc2)NC(=O)CCSCc2cccc(c2)CSCCNC(=O)[C@H](Cc2c[nH]cn2)NC(=O)[C@H](Cc2ccc(O)cc2)NC(=O)[C@H](CC(=O)O)NC(=O)[C@H](Cc2ccc(O)cc2)NC(=O)[C@H](CC(C)C)NC(=O)[C@H](CCCNC(=N)N)NC1=O; sample = PBS; kinetic solubility = 35 µM (≈ 48.7 µg/mL)
Compound = O=c1c(-c2cnn(-c3ccccc3)c2)c(C(F)(F)F)oc2c(O)c(O)ccc12; sample = aqueous buffer; kinetic solubility = 14.6 µM (≈ 5.67 µg/mL)
Compound = CC[C@H](C)[C@@H]1NC(=O)[C@H](Cc2ccccc2)NC(=O)CSC[C@@H](C(N)=O)NC(=O)[C@H](CC(N)=O)NC(=O)[C@H](Cc2c[nH]cn2)NC(=O)[C@H](Cc2ccc(O)cc2)NC(=O)[C@H](C)NC(=O)[C@H](Cc2ccc(F)cc2)NC(=O)[C@H](CC(C)C)NC(=O)[C@H](CCCCN)NC1=O; sample = PBS; kinetic solubility = > 220 µM
Compound = CNC(=O)C1CCCN(C(=O)C2CC3CCC2N3C(=O)[C@@H]2C[C@@H](O)CN2C(=O)NCc2cccc(Cl)c2F)C1 (mixture of isomers); sample = PBS; kinetic solubility = 189 µM
Compound = CC[C@H](C)[C@@H]1NC(=O)[C@H](Cc2ccc(O)cc2)NC(=O)CSC[C@@H](C(N)=O)NC(=O)[C@H](CC(N)=O)NC(=O)[C@H](Cc2c[nH]cn2)NC(=O)[C@H](Cc2ccc(O)cc2)NC(=O)[C@H](CC(=O)O)NC(=O)[C@H](Cc2ccc(F)cc2)NC(=O)[C@H](CC(C)C)NC(=O)[C@H](CCCNC(=N)N)NC1=O; sample = PBS; kinetic solubility = 186 µM (≈ 260 µg/mL)
Compound = O=C(CNC(=O)c1cccc(NC2=NCCCO2)c1)NC[C@H](NC(=O)c1c(Cl)cc(-c2ccccc2)cc1Cl)C(=O)O; sample = aqueous buffer; kinetic solubility = 38 µM (≈ 23.3 µg/mL)
Compound = CC[C@H](C)[C@@H]1NC(=O)[C@H](Cc2ccccc2)NC(=O)CCSCc2cccc(c2)CSCCNC(=O)[C@H](C)NC(=O)[C@H](Cc2ccc(O)cc2)NC(=O)[C@H](CC(=O)O)NC(=O)[C@H](Cc2ccc(F)cc2)NC(=O)[C@H](CC(C)C)NC(=O)[C@H](CCCCN)NC1=O; sample = PBS; kinetic solubility = 19.5 µM (≈ 25 µg/mL)
Compound = CS(=O)(=O)c1ccc(-c2cc(Cl)c(C(=O)N[C@@H](CNC(=O)CNC(=O)c3cccc(NC(=N)N)c3)C(=O)O)c(Cl)c2)cc1; sample = aqueous buffer; kinetic solubility = > 100 µM

Some of these lines once more:
Compound = CNC(=O)C1CCCN(C(=O)C2CC3CCC2N3C(=O)[C@@H]2C[C@@H](O)CN2C(=O)NCc2cccc(Cl)c2F)C1 (mixture of isomers); sample = PBS; kinetic solubility = 189 µM
Compound = O=c1c(-c2cnn(-c3ccccc3)c2)c(C(F)(F)F)oc2c(O)c(O)ccc12; sample = aqueous buffer; kinetic solubility = 14.6 µM (≈ 5.67 µg/mL)
